Experimental data pooled from the literature.
Parts stem from different laboratories: compare values within a part only. Substitutions count along the parent as printed.

Block 1 — method: DHFR PCA, deep sequencing; sample: yeast; together with: (+)-ABA 0.11 µM; baseline: wild-type fitted maximum; reading: higher = stronger binding; measurement: relative binding score
Target: ABI1, truncated, D143A, DHFR fusion (Arabidopsis thaliana)
Setting: methotrexate growth selection, single substitutions
Parent: PYL1, truncated, DHFR fusion (Arabidopsis thaliana); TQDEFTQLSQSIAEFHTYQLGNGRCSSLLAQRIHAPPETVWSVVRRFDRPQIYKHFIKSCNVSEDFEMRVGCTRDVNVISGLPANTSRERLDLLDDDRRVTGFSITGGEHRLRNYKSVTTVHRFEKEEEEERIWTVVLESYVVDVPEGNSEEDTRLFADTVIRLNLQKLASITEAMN; partner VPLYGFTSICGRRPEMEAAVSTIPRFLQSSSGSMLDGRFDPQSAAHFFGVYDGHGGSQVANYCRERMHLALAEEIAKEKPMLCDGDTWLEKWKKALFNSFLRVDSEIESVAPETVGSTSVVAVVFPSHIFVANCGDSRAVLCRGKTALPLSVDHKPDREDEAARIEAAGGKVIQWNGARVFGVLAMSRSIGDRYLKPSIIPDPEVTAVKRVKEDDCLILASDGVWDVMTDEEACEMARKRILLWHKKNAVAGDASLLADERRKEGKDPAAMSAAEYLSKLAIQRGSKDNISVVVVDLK
V118S: -3.32%
N77S: 52.8%
R163V: 15.7%
Q10K: 38.5%
F157K: 0.496%
F15C: 0.0313%
S59M: -5.06%
R88L: 14.2%
V62T: 14.5%
T73V: 49.6%
I12K: -1.32%
E67A: 14.7%
R88T: 48.3%
V145K: -7.47%
R90M: 0.939%
R132I: 16%
L112C: -6.89%
V100G: -2.95%
R24E: 14.2%
G102C: -5.02%
G23T: 1.49%
S117R: -3.38%
E4D: 22.9%
N22Q: 41.1%
N165D: 15.3%

Block 2 — target: JUND, bZIP domain (human); method: DHFR protein complementation; sample: yeast; baseline: wild-type JUN-FOS pair; reading: higher = stronger binding; measurement: binding fitness
Setting: single substitutions, most at no-binding floor
Parent: JUN, bZIP domain (human); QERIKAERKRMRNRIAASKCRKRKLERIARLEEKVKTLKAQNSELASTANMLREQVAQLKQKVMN; partner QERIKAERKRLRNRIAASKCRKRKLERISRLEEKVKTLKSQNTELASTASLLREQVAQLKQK
A46V: -0.595 natural log
K34Y: -0.809 natural log
E44T: -0.947 natural log
K39E: -0.274 natural log
E33R: -0.832 natural log
R53H: -1.13 natural log
T37V: -0.629 natural log
M51Y: -0.734 natural log
V56I: -0.484 natural log
E44K: -0.887 natural log
T48L: -0.705 natural log
Q58H: -0.718 natural log
K34D: -0.852 natural log
E54I: -0.875 natural log
Q41A: -0.755 natural log

Block 3 — method: RNA Bind-n-Seq; molecule type: RNA; sample: in vitro; concentration: 365 nM; baseline: no-protein control; reading: higher = stronger binding; measurement: RBNS enrichment (R)
Target: RNA binding protein fox-1 homolog 2, RRM domain, GST-SBP tag (RBFOX2, Homo sapiens, UniProt O43251-10, residues 100-194)
Setting: natural RNA segment, single round, ends assumed
Residues (chain): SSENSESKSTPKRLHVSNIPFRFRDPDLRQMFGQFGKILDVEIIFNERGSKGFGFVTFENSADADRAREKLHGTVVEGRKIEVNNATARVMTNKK
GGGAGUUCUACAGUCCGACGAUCGAAAAGGUAUGGUAAAAAUACAAUUUUAUAAUCUUAUGGGACUACCAUCAAUAUGUAGACCGUCAUUGACCAAAACAUCCUGAUGUGUGCAUGACUGUACUUUUCAUUAAUGGAAUUCUCGGGUGCCAA: 2.24
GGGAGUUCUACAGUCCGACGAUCUGCUACAUCCCUACCCCAAGGGGCUUGGUCAAGGUGCCUGUUCCUGGCUCUCUGGCUGCAUGUGAUAAGCCAUGCUCCCCUCCCCUGCCUUUCUUCACAUUCCCACUCCCUGGAAUUCUCGGGUGCCAA: 7.8
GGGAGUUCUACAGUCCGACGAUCCUGGUUUGACUGUGGAUUAUUUCCUGGGUAUUAGUGGGACCCAACAGCACAUUGCUAUUAAUAGUAUGGAAAUAAUGGUCCCUCUGUUUCAUUGAAUUGCUGAAGUAAUGUGGAAUUCUCGGGUGCCAA: 0.535
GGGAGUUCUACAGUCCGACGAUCCUUUCUUGGCUGUUUUAGAACAGGGUACACAGGAUCGCCACCUGCAACUGGUACUCGCUUCUUGGCUGCUGCUUCUGUUGUGAAAAGACGAGCCCAUGUUUCUGCAUGGAUGGAAUUCUCGGGUGCCAA: 0.772
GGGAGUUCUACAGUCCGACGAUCAGAGAAACAGAACAGCGAUCACUAACCGUUCCGCCGCCCACCCUCUGCUAGACACAGCCAAGGCCAACGAGGCAAGCAGAAGCAGCGGCCGCAGCGAAGCUGCCGUUCAUUGGAAUUCUCGGGUGCCAA: 0.283
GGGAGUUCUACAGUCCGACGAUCAAUGCACUUAUUUUUAAACGAGCAUGACAUGAGGUGUGUUUAUAAAUUAUCAGGGAUUUUAUGUAUUGUACAUAGAUGACAAUAGGAAAUUGUUUAUUUCAAGAAAUAGCUGGAAUUCUCGGGUGCCAA: 12.7
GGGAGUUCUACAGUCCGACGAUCAGAAAAAAAUAUACAAAGAAGUCAUCUUUUCAUUAAGUGGAUUCCCUGGUUCCUUUCCAGCUGGUUGUGGAAGUAAUGGCUAACAUCCUUCAGCUGACUUUGUCUACAAGUGGAAUUCUCGGGUGCCAA: 0.389
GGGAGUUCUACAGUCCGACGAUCUUAGCUGCAGGAAGGCCUCUUAGCCAGGCUAUUCCCAUUCCAUCCGCUCCCUUCUCCCCACCCAAACCCCACACUGCAGCAGGCAGGCCAGGGCGGGUGUGGGGCUGGCUUGGAAUUCUCGGGUGCCAA: 0.284
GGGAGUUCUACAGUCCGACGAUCUCUGAACCUGCUCCUUUCUUAACUGCCAGGAUUGGAAGCAAGAGCAUCAAGCCCAUAGGAUGACUGCGCAAUCCUGUUCAGUAUUGUGAAGUAGCCCUUAAUCCUAACUUUGGAAUUCUCGGGUGCCAA: 0.475
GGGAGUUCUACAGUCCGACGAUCAGCUAUUUAAAACCAGUAAGGAGACUUGAAAUUCAGAAAAUCAACACAUUUUUAAAUGACUAACUUCUAAAAGCCCCAACACAUGACGCCAUCUGAAGACCCGCAACGGAUGGAAUUCUCGGGUGCCAA: 0.457
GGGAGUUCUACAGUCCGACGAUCCACAUAAAGUGAACAAGAAAGUCAGCCAUUAUUUCACGCCAGACUUGAUUCCAUCCUGAGAAUUCAUGUUUAUAAUUAAAUGUGUGUUAAAUAUGCAAGCAUAUCACAAAUGGAAUUCUCGGGUGCCAA: 0.433
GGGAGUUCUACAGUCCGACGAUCAUGUUCAGAUUCCUUUGAGAAUUUCAAAUGAAAAAUAAUCUUUCUGUAUGUGGUGUCUAACAUCUACAAGGUGGGGGCUGGAGAAGUGGCUUGGUGCUCAAAGGCACUUGUGGAAUUCUCGGGUGCCAA: 0.62

Block 4 — method: protein binding microarray; molecule type: double-stranded DNA, one strand shown; sample: in vitro; concentration: not given; baseline: not given; reading: higher = stronger binding; measurement: E-score
Target: Histone acetyltransferase KAT6A, winged helix 1, GST fusion (KAT6A, Homo sapiens, UniProt Q92794, residues 1-85)
Setting: 8-mer, flanks averaged, mean of 2 arrays, mostly near background
Construct (chain): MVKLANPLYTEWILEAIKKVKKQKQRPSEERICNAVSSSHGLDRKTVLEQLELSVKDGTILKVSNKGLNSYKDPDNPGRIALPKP
ATTGCCGA: 0.188
CTACACTA: -0.205
ACTCGAGT: -0.237
AGGGGGTG: -0.136
ACAACACA: -0.27
TAATTGAA: -0.0502
TGTGCGAA: 0.017
GCGGCCGA: 0.432
GAGTTAGA: -0.0795
ACTACATA: -0.284
CGTGGGGC: 0.022
GCACTGAA: -0.0118
ATGAAGGG: -0.224
GAGGAGAC: 0.12
ACAGTCAT: -0.155
CAAGCCTA: -0.139
GAGCCATC: -0.254
AGGGGGGC: -0.119
ACAGTCTG: -0.179
CGACCCCA: -0.131
AATCGCAA: 0.024
AGGCGGGA: 0.293
AACTTTTC: -0.034
TCAGGAAA: -0.163
AAAACTTT: -0.159

A few entries again (block 2):
K34Y: -0.809 natural log
E44T: -0.947 natural log
K39E: -0.274 natural log
E33R: -0.832 natural log
